Measured values of several laboratories.
Each numbered part is a random draw from the data of one study; scales do not carry over between parts.

Sample 1
Target: Histone acetyltransferase KAT6A, winged helix 2, GST fusion (KAT6A, Homo sapiens, UniProt Q92794, residues 85-181)
Technique: protein binding microarray
Molecule type: double-stranded DNA, one strand shown
Medium: in vitro
Concentration: not given
Setting: 8-mer, flanks averaged, mean of 2 arrays, mostly near background
Baseline: not given
Reading: higher = stronger binding
Residues (chain): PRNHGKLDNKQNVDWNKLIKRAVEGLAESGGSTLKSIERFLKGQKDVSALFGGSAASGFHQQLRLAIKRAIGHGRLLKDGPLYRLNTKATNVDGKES
Strand	E-score
ATAATCGA	0.1
AGAAGTCC	-0.0836
TATTCGCA	0.00446
AACACTTC	-0.063
AGGTATCG	0.128
ACCTTAAG	-0.181
ATCGAGCC	0.0399
GAGAAGGA	-0.129
GGTCTTAA	-0.14
GTGTGACA	-0.0853
AGTACACC	0.00968
AATAAAAG	-0.0748
GAGCTACC	-0.0484
AGCTTGAA	-0.109
GGGCTTAC	0.0202
ACACATAG	-0.00316
CCGCCGAC	0.0879
AGTTACCA	-0.006

Sample 2
Target: Interferon regulatory factor 7, full length, phosphomimetic (IRF7, Homo sapiens, UniProt Q92985, residues 1-503, S471D/S472D/S475D/S476D/S477D/S483D/S484D/S487D)
Technique: protein-binding microarray
Molecule type: double-stranded DNA, one strand shown
Medium: in vitro
Concentration: 2200 nM top
Setting: 60-bp whole probe
Together with: salmon DNA 0.4 mg/ml
Baseline: random background probes
Reading: higher = stronger binding
Shared flanks, not repeated: GCCTAGCAC … GTCTTGATTCGCTTGACGCTGCTG
Target sequence (chain): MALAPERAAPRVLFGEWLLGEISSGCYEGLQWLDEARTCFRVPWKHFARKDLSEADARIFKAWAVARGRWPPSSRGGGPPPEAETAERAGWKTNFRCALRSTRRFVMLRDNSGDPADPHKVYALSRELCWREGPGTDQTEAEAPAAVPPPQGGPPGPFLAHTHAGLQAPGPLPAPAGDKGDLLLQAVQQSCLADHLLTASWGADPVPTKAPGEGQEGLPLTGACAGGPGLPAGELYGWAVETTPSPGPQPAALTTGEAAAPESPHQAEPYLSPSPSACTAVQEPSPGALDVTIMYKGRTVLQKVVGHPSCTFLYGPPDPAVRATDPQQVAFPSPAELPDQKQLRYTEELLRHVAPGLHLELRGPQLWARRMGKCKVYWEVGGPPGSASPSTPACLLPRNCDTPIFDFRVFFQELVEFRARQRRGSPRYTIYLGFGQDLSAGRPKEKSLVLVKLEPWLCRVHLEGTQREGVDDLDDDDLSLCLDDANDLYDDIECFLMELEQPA
Strand	fitted relative affinity [z-score]
TCAGATTTACAAACTGTGACTGTGCTA	0.00932
TTAGGTTCCGGTTTCCGTTAGTGCTAG	5.35
TTAGGACTGGGGACTGGGTTCGTGCTA	-0.835
GCCGGTTTCGGACTGGGGACGTGCTAG	4.81
TTAAGTTTCCTTTTCCTTTAGTGCTAG	9.18
TTATGACTGGACTATCGGTTAGTGCTA	0.226
TTAGATTTCGTGACTGGATTAGTGCTA	0.495
CACGGTTTCGACTTTCGGGACGTGCTA	8.96
CTAATTTTCATTTTCCAAATGTGCTAG	6.93
TGAGATTTCGGGTTTCGATTAGTGCTA	6.11
GAAGGTTTCCTTCTCCTGACGTGCTAG	2.12
GACGGACTGCTTATCCTGTCGTGCTAG	0.951
TTAGGTTTCATTTCCCTTTAGTGCTAG	5.02
TCACATTTTTTTTTTCTACTGTGCTAG	2.19
TTAGGTTTCCTTTTTCTTTAGTGCTAG	3.87
GACGGTATCCTACTGCAGACGTGCTAG	0.588
TTAGGTCTCGGCTTCGGTTAGTGCTAG	0.554
TTAGGTTCCGGGTATCGGTTAGTGCTA	1.45
TTAGGACTGCTACTGATTTAGTGCTAG	-0.175
TTAGATCACAGTATCGATTAGTGCTAG	0.194
GACGGTTTCGGTTTCGGAACGTGCTAG	15.6
GACGGTTTCGGTTTCGAGACGTGCTAG	14.4
GTGTTACTAAAATTTCATGAAGTGCTA	0.33
TTAAAACTGAGTCTCGATTAGTGCTAG	-0.421
TTAGGTTCCATTTTCCTTTAGTGCTAG	3.6

Sample 3
Target: RNA binding protein fox-1 homolog 2, RRM domain, GST-SBP tag (RBFOX2, Homo sapiens, UniProt O43251-10, residues 100-194)
Technique: RNA Bind-n-Seq
Molecule type: RNA
Medium: in vitro
Concentration: 365 nM
Setting: natural RNA segment, single round, ends assumed
Baseline: no-protein control
Reading: higher = stronger binding
Residues (chain): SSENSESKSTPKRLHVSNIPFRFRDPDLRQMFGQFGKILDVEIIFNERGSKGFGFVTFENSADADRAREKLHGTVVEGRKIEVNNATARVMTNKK
Strand	RBNS enrichment (R)
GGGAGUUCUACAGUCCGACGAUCGGUUAUAUGUAUGCACCACAUGUGCACACACGGGUGUUGGUGCAACUCACCAGCAGGUGUGCAGUAGGCAAGCUUGAAGGUGGCCCAUGCUUCUCUGUUGUCACACAACAUGGAAUUCUCGGGUGCCAA	0.434
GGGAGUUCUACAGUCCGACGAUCCUGAGCUCCUCCCACCCUCCUCCAGGAACCUCCACAUCUCCAAAAAUCUCCCUGUUGACUCAGUGCCUCCUCGGCUUCCUUGGAAGCCCAGAGGGACUAUGAUCUGAUGGUGGAAUUCUCGGGUGCCAA	0.39
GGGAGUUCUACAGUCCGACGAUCCCUGAGCAUUCGCAAAGCUCGCUUCUCCAGGGAGCCUCCUCUUGGCUUUGGAAAAGAGCCCAGGGACUUAACGUGCUGCCUGUUGUACUCUGUCCCCUCAUGACUUUUUAUGGAAUUCUCGGGUGCCAA	0.632
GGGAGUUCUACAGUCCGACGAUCCCACCGUCCCACUCGGUGACCCCAGGCCCCUCCGGCGCGGGAUGGCGCCCCAGGUCUCCCCUACUCCGCUCACCCCGCAGUUAAUGGCAAACGAAUAAAUAAAUGAGGCGUGGAAUUCUCGGGUGCCAA	0.41
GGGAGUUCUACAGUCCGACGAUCAGAAUUGCUUCUCAGAUGAUGAUAUCAAAUGUAUAUGCUUUUGCAAGUUUGAAAAGUUCAAAUUAACCACUUUUGACUAGGUAAGUCUUUCUAAAAACCAUUUAAAGCUAUGGAAUUCUCGGGUGCCAA	0.538
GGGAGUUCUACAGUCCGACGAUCUUGCAAGCUAAUCUAUUUGGCAAAAAAAUAGUCCCAGUUGUUCAACUAGCUCCCUUAAAACAUUCUAGUAGGUGUUUUAAAGCCUAGGUAUCGCUGCCUCUUUAGUUCUUUGGAAUUCUCGGGUGCCAA	0.356
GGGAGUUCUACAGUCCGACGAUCUCCUGUCUGAUGCAUCCUUGAUGGCAAGCUUCAAAUCUGAUUUGGUAUCACCGAGGAAACCUUGCCCCCAUCACUCAGCAUUGCACUUAGAUACAGAAUGAGUUAGAUAAUGGAAUUCUCGGGUGCCAA	0.948
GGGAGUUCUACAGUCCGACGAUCCAUCUUACUAAAAGCGUCUUAAAAUGACCAAUUCCAGAAUCAAGCGUAUUCCGUUUUCUUCCUGCAUGAUCCCUGGGCCCUCCCGCAGGCUGAGCAAGUCUGUAAACUGAUGGAAUUCUCGGGUGCCAA	0.835
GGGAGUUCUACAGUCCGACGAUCUGCCCGACUUCGUACUAAGCAGCUCAGGAGCAGUCACUCAGACCCAAAUGUCUUGACUGUGUUGUUUUUAAUCACUGUGACCCUUAAAGUACAGGCCAAGUGUUGUCAAAUGGAAUUCUCGGGUGCCAA	0.243
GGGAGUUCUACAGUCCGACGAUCAAUCGGAAACCUGUGAGUCAGAGUCAGAGAAACUUACCCAAGCAACGUAAUUCCUGUUUUCAUGGGUCCUGUAGAUGUUUGAGUCAGGAAGGUAAGGCGGGGAGUGACUGUGGAAUUCUCGGGUGCCAA	0.764
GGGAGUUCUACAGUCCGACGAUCGAACAAUGGAGAGAAAGUAGGUGAGUACUUUGAGUGUUGGGCUUUGGGCCAAAAAUGCAGACUCAGGUUUUAGGUGUCUUACCACAUGGCUGCCCUGUGCAGGCUGUCAUUGGAAUUCUCGGGUGCCAA	1.06
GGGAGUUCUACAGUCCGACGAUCCAGGCAUUUCUACCAUAAUAUUGGAAUUGAACACAUUGGCUAAAUAAAGUUGAAAUUUUACUACCCAUGUCACUGCUGCUUUAUUUUGAGCUAAGGGAGCUGAGCUGAAAUGGAAUUCUCGGGUGCCAA	0.272

Sample 4
Target: Ras GTPase-activating protein-binding protein 1, C-terminal RGG region (G3BP1, Homo sapiens, UniProt Q13283)
UniProt Q13283, sequence (whole entry, looked up): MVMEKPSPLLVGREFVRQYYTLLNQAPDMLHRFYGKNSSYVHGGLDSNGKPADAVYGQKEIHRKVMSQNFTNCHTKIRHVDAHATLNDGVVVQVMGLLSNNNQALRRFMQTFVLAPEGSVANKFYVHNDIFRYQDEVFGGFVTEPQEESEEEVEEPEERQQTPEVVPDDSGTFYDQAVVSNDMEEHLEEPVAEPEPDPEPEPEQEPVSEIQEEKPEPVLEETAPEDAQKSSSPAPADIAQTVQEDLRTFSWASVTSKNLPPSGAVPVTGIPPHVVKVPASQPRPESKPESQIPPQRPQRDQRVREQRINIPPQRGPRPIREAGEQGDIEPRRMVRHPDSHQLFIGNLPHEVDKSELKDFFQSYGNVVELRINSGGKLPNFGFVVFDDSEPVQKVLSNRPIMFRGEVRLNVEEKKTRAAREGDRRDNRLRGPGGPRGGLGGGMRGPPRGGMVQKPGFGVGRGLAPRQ
Technique: RNA Bind-n-Seq
Molecule type: RNA
Medium: in vitro
Concentration: 1 µM
Setting: whole 134-nt RNA, ends assumed
Together with: 150 mM KCl
Baseline: input library
Reading: higher = stronger binding
Strand	log2 enrichment
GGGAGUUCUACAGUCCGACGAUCUCAAGUCCUGUGCUACACAUCGUAUGUACCGAAUCGGGUUUGGGAAAGGGAGGGAAAGUAUUAUGUUACGCCGUUCGGAUCUGCACUUCCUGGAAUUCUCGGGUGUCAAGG	2.1
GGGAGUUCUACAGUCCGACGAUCUAACUUUAGAGAAGGAUCUGAUGGAUAUGGCAGUGGACGUGGAUUUGGGGAUGGCUAUAAUGGGUAUGGAGGAGGACCUGGAGGUGGCAAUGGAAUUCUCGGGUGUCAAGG	-1.54
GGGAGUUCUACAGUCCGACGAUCUUGGAAGAGACCAGUGAAAUUCGAUCUGACUUGGAGCAGUUAGACCACGAGGUUAAGGAGGCUCAGACACUGUGCGAUGAACUCUCAGUGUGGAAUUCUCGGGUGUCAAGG	0.419
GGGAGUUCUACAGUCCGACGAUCUCAAGUCCUGUGCUACACAUCGUAUGUACCGAAUCGGGGCCGGGGCCGGGCCGGAAAGUAUUAUGUUACGCCGUUCGGAUCUGCACUUCCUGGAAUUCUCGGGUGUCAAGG	-1.9
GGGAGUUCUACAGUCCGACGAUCCACAGACAACACGCACCCACACAGACACAGAGGGAAGGGGUUGGGAUGGGGACAGGGUGCACAGCAGGGCGGGGUGGGACCCCAGCCCCUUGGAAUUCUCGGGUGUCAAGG	-0.884
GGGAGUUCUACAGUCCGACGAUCUGGCCCUGGUGGCAUGCGGGGAGGAAGAGGUGGCCUCAUGGAUCGUGGUGGUCCCGGUGGAAUGUUCAGGGGUGGCCGUGGUGGAGACAGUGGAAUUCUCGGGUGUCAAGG	3.49
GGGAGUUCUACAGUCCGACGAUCUCCUCAAGUCCUGUGCUACACAUCGUAUGUACCGAAUCGGGUGGUGGGUGGGAAAGUAUUAUGUUACGCCGUUCGGAUCUGCACUUCCAGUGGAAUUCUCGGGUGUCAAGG	1.24
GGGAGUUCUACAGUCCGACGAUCAAGUCCUGUGCUACACAUCGUAUGUACCGAAUCGGAAAAAGGUUUUUUUGGAAAGGAAAGUAUUAUGUUACGCCGUUCGGAUCUGCACUUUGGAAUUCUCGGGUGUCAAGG	-2.5
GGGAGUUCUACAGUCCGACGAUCACCAUGCAGGUGGGCAUCUUUGGGAAGUGGUGCAAGGGGGGGAUAGGGAGGGGGGUAACACUUUGGGAACAGGUGGUCCCAGGUCGUUUCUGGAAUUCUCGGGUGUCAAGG	-1.32
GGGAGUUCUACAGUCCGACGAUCACCAUGCAGGUGGGCAUGUUUGGGAAGUGGGGCAAGGGGGGGAUAGGGAGGGGGGUAACACUUUGGGAACAGGUGGUCCCAGGUCGUUUCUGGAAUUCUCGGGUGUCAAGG	-0.929
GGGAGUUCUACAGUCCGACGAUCACCAUGCAGGUGGGCAUCUUUGGGAAGUGGGGCAAGGGAGGGAUAGGGAGGGGGGUAACACUUUGGGAACAGGUGGUCCCAGGUCGUUUCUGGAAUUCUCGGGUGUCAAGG	-1.42
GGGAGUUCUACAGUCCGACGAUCCCUCAAGUCCUGUGCUACACAUCGUAUGUACCGAAUCGGAGGUUUUUGGAGGAAAGUAUUAUGUUACGCCGUUCGGAUCUGCACUUCCAGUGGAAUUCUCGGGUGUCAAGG	-0.672
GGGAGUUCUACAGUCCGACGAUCACCAUGCAGGUGGGCAUCUUUGGGAAGUGGGGCAAGGGGGGGAUAGGGAGGGGGGUAACAAUUUGGGAACAGGUGGUCCCAGGUCGUUUCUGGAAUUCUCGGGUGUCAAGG	2.23
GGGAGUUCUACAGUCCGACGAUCUCAAGUCCUGUGCUACACAUCGUAUGUACCGAAUCGGGGUUGGGGUUGGUUGGGGAAAGUAUUAUGUUACGCCGUUCGGAUCUGCACUUCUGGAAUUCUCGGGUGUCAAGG	0.386

Excerpt of the above (sample 1):
Strand	E-score
ATAATCGA	0.1
GAGCTACC	-0.0484
ACACATAG	-0.00316
ACCTTAAG	-0.181
GTGTGACA	-0.0853
AGTACACC	0.00968
AATAAAAG	-0.0748
AGTTACCA	-0.006
GAGAAGGA	-0.129
GGTCTTAA	-0.14
TATTCGCA	0.00446
